Published values collected from several papers.
± marks the error that the study gave. Converted amounts (≈) assume the structure as drawn.

SMILES | assay | test system | conditions | how to read | measurement | result
CCCCC1NC(=O)c2ccccc21 (racemic) | – | Wistar rat | oral, 10 mg/kg | – | oral bioavailability | 93.7%
CC(NC(=O)OC1OC(C(=O)O)C(O)C(O)C1O)c1cc(Cl)ccc1Cn1c(=S)[nH]c(=O)c2[nH]ccc21 (stereo not drawn) | equilibrium dialysis | male Han Wistar rats, plasma | 1 µM, 16 h, 37 °C | – | fraction unbound | 18.4 ± 0.93%
Cc1ccc(OCC(=O)N(Cc2cccs2)c2ccn[nH]2)cc1 | – | Sprague-Dawley rat, male, plasma | oral gavage, 10 mg/kg | – | dose-normalised AUC(0-last) | 0.164 ng·h/mL/mg/kg
CCCC[C@H](NC(=O)CNC(=O)CNC(=O)CN1CCN(CC(=O)O)CCN(CC(=O)O)CC1)C(=O)N[C@H]1CC(=O)NCCCC[C@@H](C(N)=O)NC(=O)[C@H](Cc2c[nH]c3ccccc23)NC(=O)[C@H](CCCNC(=N)N)NC(=O)[C@@H](Cc2ccccc2)NC(=O)[C@H](Cc2c[nH]cn2)NC1=O [gallium-67 labelled] | – | female C57 mice, B16/F1 melanoma | intravenous, 0.037 MBq, 4 h | relative to: tumour over liver | tumour to tissue ratio | 33.4
O=C([O-])CN1CCN(CC(=O)[O-])CCN(C(CCC(=O)NCCCCCN(CCCC[C@H](NC(=O)N[C@@H](CCC(=O)O)C(=O)O)C(=O)O)C(=O)c2ccc(I)cc2)C(=O)O)CCN(CC(=O)[O-])CC1.[68Ga+3] (stereo partly drawn) | PET/CT | prostate cancer patients, liver | 60 min post-injection | – | SUVmean | 2.5 ± 0.7
CC(C)C[C@H](NC(=O)[C@H](C)NC(=O)[C@H](C)NC(=O)[C@H](CCC(N)=O)NC(=O)[C@H](C)NC(=O)[C@H](CO)NC(=O)[C@H](CC(C)C)NC(=O)[C@H](C)NC(=O)[C@@H](NC(=O)[C@H](C)NC(=O)[C@H](Cc1ccc(O)cc1)NC(=O)[C@H](CO)NC(=O)[C@H](CCCCN)NC(=O)[C@H](C)NC(=O)[C@H](Cc1ccccc1)NC(=O)[C@H](CCCCN)NC(=O)[C@H](C)NC(=O)[C@H](Cc1ccccc1)NC(=O)[C@H](CCCCN)NC(=O)[C@H](CCCCN)NC(=O)[C@H](C)NC(=O)[C@H](Cc1ccccc1)NC(=O)[C@H](CCCCN)NC(=O)[C@H](C)NC(=O)[C@H](Cc1ccccc1)NC(=O)[C@H](CCCCN)NC(=O)[C@H](CCCCN)NC(=O)[C@H](C)NC(=O)[C@H](Cc1ccccc1)NC(=O)[C@H](CCCCN)NC(=O)[C@H](C)NC(=O)[C@H](Cc1ccccc1)NC(=O)[C@@H](N)CCCCN)C(C)C)C(=O)N[C@@H](C)C(=O)N[C@@H](CCCNC(=N)N)C(=O)N[C@@H](CCCNC(=N)N)C(=O)O | – | C57BL/6 mouse, male | intravenous, 8 mg/kg | – | clearance | 2.62 ± 0.367 mL/min/kg
O=C(Nc1ccc(-c2noc(C3CC3)n2)c(Cl)c1)c1cccs1 | – | sodium acetate buffer | 24 h, pH 4.0, room temperature | – | thermodynamic solubility | 130 ± 19.1 µg/mL (≈ 376 µM)
NC12CNCCNCC(NCc3ccc(CNC(=O)CCCC(=O)NCc4ccc(-c5nncnn5)cc4)cc3)(CNCCNC1)CNCCNC2.[64Cu+2] | OLINDA dosimetry | lower large intestine wall | pretargeting, 24-h interval | – | mean absorbed dose | 0.0484 rad/mCi
C=C(c1ccc(C(=O)O)c(F)c1)c1cc2c(cc1C)C(C)(C)C=CC2(C)C | – | rat, Sprague-Dawley, male, serum | oral, 100 mg/kg, 24 h | – | triglycerides | 1590 ± 821 ng/dL
C#CCOc1ccc(/C=C2\SC(=O)N(CC(=O)NCc3ccccc3)C2=O)cc1 | inverse Kirkwood-Buff integrals | binary solvent mixture | 298.15 K, mole fraction x1 0.35 | – | Kirkwood-Buff integral G1,3 | -266 cm³/mol
C#CCN(C(=O)OCc1ccc(C(=O)N(C)C)cc1)[c-]1cccc1.[Fe+2].c1cc[cH-]c1 | cyclic and differential pulse voltammetry | acetonitrile | 23 °C | relative to: ferrocene/ferrocenium | E1/2 | -10 mV
O=[11C](OC(C(F)(F)F)C(F)(F)F)N1CCC(CNS(=O)(=O)c2ccc(Cl)cc2)CC1 | PET | rhesus monkey, male, pons | iv, 3.71 mCi | – | uptake | 0.55 SUV
CC(C)CCCC(C)CCCC(C)CCO[C@@H]1O[C@H](CO)[C@@H](O[C@H]2O[C@H](CO)[C@@H](O)[C@H](O)[C@H]2O)[C@H](O)[C@H]1O (stereo partly drawn) | dynamic surface tension | – | 0.0072 mmol/L | – | characteristic time t* | 167 s
CC(C)[C@H](NC(=O)CNC(=O)[C@H](CCC(N)=O)NC(=O)[C@H](C)N)C(=O)O | – | healthy volunteers, LPS endotoxaemia, plasma | intravenous, 90 mg/kg/h, 2 h infusion, geometric mean, with: LPS 2 ng/kg | – | AUC(0-t) | 19700 ng·h/mL
CC[C@H](C)[C@H](NC(=O)[C@H](CO)NC(=O)[C@H](CCCNC(=N)N)NC(C)=O)C(=O)N[C@H]1CSSC[C@@H](C(=O)N[C@H](C(=O)NCCOCCOCCOCCOCCOCCOCCOCCOCCC(N)=O)[C@@H](C)O)NC(=O)[C@H](CCCNC(=N)N)NC(=O)[C@H](Cc2c[nH]cn2)NC(=O)[C@H](C)NC(=O)CNC(=O)[C@H](Cc2c[nH]c3ccccc23)NC(=O)[C@H](CC(=O)O)NC(=O)[C@H](CCC(N)=O)NC(=O)[C@H](Cc2c[nH]c3ccccc23)NC(=O)[C@H](C(C)C)NC1=O | UV absorbance | PBS | pH 7.4 | – | apparent solubility | ≥ 10000 µg/mL
O=C1C2=C(CCN(Cc3ccccc3)C2)N2CCN=C2N1Cc1ccc(C(F)(F)F)cc1 | microsomal stability | human liver microsomes | – | – | apparent clearance | 396 mL/min/kg
CC(C)c1cnc(-c2cc(Cl)ccc2F)cc1Nc1ccncc1C(=O)NC(CO)CO | item: intracranial tumour haemorrhage | human patients | oral, dose not given, grade 2 | – | patients with related SAE | 0%

SMILES | assay | test system | conditions | how to read | measurement | result
Cc1ccccc1/N=N/c1ccc(/N=N/c2c(O)ccc3ccccc23)c(C)c1 | – | rat whole blood | 16.0 µg/L, 30 days, -20 °C, long-term storage | – | measured concentration | 16.2 µg/L
CCCCCCCC(=O)OC[C@H](NC(=O)[C@H](CO)NC(=O)CN)C(=O)N[C@@H](Cc1ccccc1)C(=O)N[C@@H](CC(C)C)C(=O)N[C@@H](CO)C(=O)N1CCC[C@H]1C(=O)N[C@@H](CCC(=O)O)C(=O)N[C@@H](Cc1cnc[nH]1)C(=O)N[C@@H](CCC(N)=O)C(=O)N[C@@H](CCCNC(=N)N)C(=O)N[C@H](C(=O)N[C@@H](CCC(N)=O)C(=O)N[C@@H](CCC(N)=O)C(=O)N[C@@H](CCCNC(=N)N)C(=O)N[C@@H](CCCCN)C(=O)N[C@@H](CCC(=O)O)C(=O)N[C@@H](CO)C(=O)N[C@@H](CCCCN)C(=O)N[C@@H](CCCCN)C(=O)N1CCC[C@H]1C(=O)N1CCC[C@H]1C(=O)N[C@@H](C)C(=O)N[C@@H](CCCCN)C(=O)N[C@@H](CC(C)C)C(=O)N[C@@H](CCC(N)=O)C(=O)N1CCC[C@H]1C(=O)N[C@@H](CCCNC(=N)N)C(=O)O)C(C)C | beat-to-beat plethysmography | human chronic HFrEF patients | intravenous infusion, 0.1 µg/kg/min, after 60 min infusion | – | blood pressure mBP | 71.4 ± 10.2 mm Hg
Oc1c(Br)cc(Br)c2nc3cc(F)ccc3nc12 | – | human red blood cells | 200 µM, 1 h, pH 7.2, 37 °C | – | hemolysis | 1.6%
CC(C)(Sc1ccncc1-c1ccc(C#N)c2ccccc12)C(=O)OC1OC(C(=O)O)C(O)C(O)C1O (stereo not drawn) | – | urine | oral, 15 mg, 72 h, mild renal impairment | relative to: dose | fraction excreted unchanged | 11.2%
CN(C)C(=S)N(C)N=Cc1ccccc1SSc1ccccc1C=NN(C)C(=S)N(C)C | optical absorption spectra | PBS | pH 7.40, 0.15% DMSO | – | hydrolytic stability period | ≥ 8 h
Cc1cc(C(=O)N[C@@H](CO)CC(C)C)ccc1CO | LC-MS | human liver microsomes | 10 µM of parent drug, 10 min, pH 7.4, with: NADPH | relative to: parent drug at time zero | metabolite peak area | 0%
CCCC[C@H](NC(=O)CNC(=O)CNC(=O)CN1CCN(CC(=O)O)CCN(CC(=O)O)CC1)C(=O)N[C@H]1CC(=O)NCCCC[C@@H](C(N)=O)NC(=O)[C@H](Cc2c[nH]c3ccccc23)NC(=O)[C@H](CCCNC(=N)N)NC(=O)[C@@H](Cc2ccccc2)NC(=O)[C@H](Cc2c[nH]cn2)NC1=O [copper-64 labelled] | – | female C57 mouse, B16/F1 melanoma | intravenous, 0.037 MBq, 0.5 h | relative to: tumour over kidneys | uptake ratio | 1.35
O=C([O-])CN1CCN(CC(=O)[O-])CCN(CC(=O)NC[C@H]2CC[C@H](C(=O)N[C@H](Cc3cnc4ccccc4c3)C(=O)NCCCC[C@H](NC(=O)N[C@@H](CCC(=O)O)C(=O)O)C(=O)O)CC2)CCN(CC(=O)[O-])CC1.[64Cu+2] | PET/CT, OLINDA/EXM dosimetry | healthy human volunteers, left colon | – | – | absorbed dose | 0.029 mGy/MBq
CN[C@@H]1[C@H](O)[C@H](NC)[C@H]2O[C@]3(O)[C@H](O[C@@H]2[C@H]1O)O[C@H](C)C[C@@]3(O)CNCc1ccc(OC(F)(F)F)cc1 | – | rat, urine | intravenous, 10 mg/kg | – | fraction excreted unchanged | 0.22
C#CCOCCOCCOCCOCCn1cc(C(ONC(=O)/C=C/C(C)=C/C2(C)Oc3cc(N(C)C)ccc3C2=O)(c2ccccc2)c2ccccc2)nn1 (stereo not drawn) | – | buffer | all pH values | – | hydrolytic stability | stable
O=C(Cc1ccccc1)Nc1nc2ccccc2n1Cc1ccccc1 | ultrafiltration | human plasma | 30 min, 37 °C | – | fraction unbound | 36.6%
[11CH3]c1ccc2nc(C3CCC3)n(-c3ccc4[nH]ncc4c3)c2n1 | extrapolated from mouse biodistribution | human female, total body | – | – | absorbed dose | 3.6 µSv/MBq
CC1=C(O)C(=O)C=C2C1=CC=C1[C@@]2(C)CC[C@@]2(C)[C@@H]3C[C@](C)(C(=O)NCCOCCOCCOCCOCC(=O)N[C@H](C(=O)N4C[C@H](O)C[C@H]4C(=O)N[C@@H](C)c4ccc(-c5scnc5C)cc4)C(C)(C)C)CC[C@]3(C)CC[C@]12C | – | C57BL/6 mouse, male, plasma | ip, 20 mg/kg | – | bioavailability | 98%
Cc1ccc(-c2ccc(-c3cc4sccc4o3)cn2)nc1 | TCSPC | MeOH | – | – | radiative decay rate constant | 0.36 ns⁻¹
CC(C)C[C@@H](NC(=O)[C@H](NC(=O)[C@H]1CCCN1)[C@H](C)O)C(=O)N[C@H](Cc1c[nH]cn1)C(=O)N[C@@H](C(=O)N[C@H](Cc1c[nH]cn1)C(=O)N[C@H](CC(N)=O)C(=O)N[C@H](CCCNC(=N)N)C(=O)N[C@H](CCCNC(=N)N)C(=O)N[C@H](CCCNC(=N)N)C(=O)N[C@H](CCCNC(=N)N)C(=O)N[C@H](CCCNC(=N)N)C(N)=O)[C@H](C)O | – | Beagle dogs both sexes, plasma | intravenous, 3 mg/kg | – | Tmax | 3 min
COc1cc(C)c(Cc2ccc(O)cc2)cc1[C@@H]1S[C@H](CO)[C@@H](O)[C@H](O)[C@H]1O | – | Japanese T2DM patients, plasma | 1 mg luseogliflozin, day 7, once daily | relative to: compound over luseogliflozin | AUC(0-τ) ratio | 0.147 ± 0.0229

Repeated from above:
SMILES | assay | test system | conditions | how to read | measurement | result
O=C([O-])CN1CCN(CC(=O)[O-])CCN(CC(=O)NC[C@H]2CC[C@H](C(=O)N[C@H](Cc3cnc4ccccc4c3)C(=O)NCCCC[C@H](NC(=O)N[C@@H](CCC(=O)O)C(=O)O)C(=O)O)CC2)CCN(CC(=O)[O-])CC1.[64Cu+2] | PET/CT, OLINDA/EXM dosimetry | healthy human volunteers, left colon | – | – | absorbed dose | 0.029 mGy/MBq
Cc1ccc(-c2ccc(-c3cc4sccc4o3)cn2)nc1 | TCSPC | MeOH | – | – | radiative decay rate constant | 0.36 ns⁻¹
